Published values of several laboratories.
Compare with care: the assays were run in different laboratories. Numbers after ± are the reported error.

Compound | test | system | setting | scale | quantity | result
Cc1cc(-c2ccc(C(=O)[C@@H]3CCCC[C@H]3C(=O)Nc3cnn4c3C(=O)NCC4)cc2)[nH]n1 | – | human, urine | oral, 200 mg, 72-96 h | baseline: dose | recovery of radioactivity per interval | 0.05%
COC1CN([C@H]2CC[C@H]([C@@]3(C)Oc4c(Cl)cc(C(=O)NCc5c(SC)cc(C)[nH]c5=O)c(C)c4O3)CC2)C1 | RNA-seq, measured: SLC9A3R2 | human, whole blood | dose not given, 24 h | baseline: pretreatment baseline | log2 fold change | 1.4
O=C(Nc1cnccc1-c1ccc([18F])cc1)c1ccnc(NC(=O)C2CC2)c1 | ex vivo gamma counting | GSK-3β transgenic mice, late-stage, blood | intravenous, 1.26 MBq/animal, 120 min, mean, no P-gp inhibitor | – | SUV | 0.2
O=C(NS(=O)(=O)c1cccs1)c1cc2ccccc2n1Cc1ccc(Br)c2ccccc12 | – | Sprague-Dawley rat, male, plasma | oral, 20 mL/kg, 0.25 h | – | plasma concentration | 2520 ng/mL
C=C(NC(=O)c1csc(-c2nc3c(cc2O)-c2nc(cs2)C(=O)NC(C(C)O)C(=O)NC(=C(C)OC)c2nc(cs2)C(=O)NC2c4nc(cs4)C(=O)NC(COC(=O)c4c5c6c(cccc6n4O)COC(=O)C(OC4CC(C)(O)C(N(C)C)C(C)O4)C2OC5)c2nc-3cs2)n1)C(N)=O (stereo not shown) | – | ICR mice, Streptococcus pneumoniae ATCC 49169 infected, immunocompromised, blood | intravenous, 32 mg/kg/day three times daily | – | half-life | 2.63 h
CN1C(=O)[C@@H](Cc2ccc(O)c(I)c2)NC(=O)CNC(=O)[C@H](Cc2ccc3ccccc3c2)NC(=O)[C@H](CCCNC(=N)N)NC(=O)[C@H]1CCCNC(=O)c1ccc(CNC(=O)CN2CCN(CC(=O)O)CCN(CC(=O)O)CCN(CC(=O)O)CC2)cc1 [lutetium-177 labelled] | extrapolation method 2, OLINDA/EXM, measured: 177Lu radioactivity | human, extrapolated from mice, stomach wall | – | – | absorbed dose coefficient | 0.0049 mGy/MBq
O=C(Nc1cnccc1-c1ccc([18F])nc1)c1ccnc(NC(=O)C2CC2)c1 | – | FVB/NJ mice (both sexes), large intestine | intravenous, dose not given, 120 min | – | SUV | 0.999
Cc1noc(C)c1Cn1cc(N2C(=O)CN(Cc3cccc(OS(=O)(=O)O)c3)C2=O)cn1 | – | Sprague-Dawley rat, male | oral, 10 mg/kg of parent drug, 24 h | – | plasma concentration | 16 ng/mL
Cc1nc(N)nc2c1C(=O)N[C@@H](c1ccc(F)cc1-c1cccc(O[11CH3])n1)C2 | radioligand, ex vivo biodistribution | mouse, MDA-MB-231 xenograft, carcass | 60 min p.i. | – | tracer uptake | 47.2 ± 0.6 %ID
CCCC[C@H]1C(=O)N(C)[C@@H](CCCC)C(=O)N[C@@H](CCCCNC(=S)Nc2ccc(CN3CCN(CC(=O)O)CCN(CC(=O)O)CC3)cc2)C(=O)N[C@H](C(=O)NCC(N)=O)CSCC(=O)N[C@@H](Cc2ccc(O)cc2)C(=O)N(C)[C@@H](C)C(=O)N[C@@H](CC(N)=O)C(=O)N2CCC[C@H]2C(=O)N[C@@H](Cc2cnc[nH]2)C(=O)N[C@@H](CCC(=O)O)C(=O)N2C[C@H](O)C[C@H]2C(=O)N[C@@H](Cc2c[nH]c3ccccc23)C(=O)N[C@@H](CO)C(=O)N[C@@H](Cc2cn(CC(=O)O)c3ccccc23)C(=O)N1C [fluorine-18 labelled] | PET, measured: PD-L1 | huCD34 mouse A-375 xenograft, tumour periphery beyond 3 mm | anti-PD-1 monotherapy | – | SUV | 1.19 ± 0.49 SUV

Excerpt of the above:
Compound | test | system | setting | scale | quantity | result
O=C(Nc1cnccc1-c1ccc([18F])nc1)c1ccnc(NC(=O)C2CC2)c1 | – | FVB/NJ mice (both sexes), large intestine | intravenous, dose not given, 120 min | – | SUV | 0.999
O=C(Nc1cnccc1-c1ccc([18F])cc1)c1ccnc(NC(=O)C2CC2)c1 | ex vivo gamma counting | GSK-3β transgenic mice, late-stage, blood | intravenous, 1.26 MBq/animal, 120 min, mean, no P-gp inhibitor | – | SUV | 0.2
